Measurements pooled from the literature.
Compare with care: the assays were run in different laboratories. ± gives the spread as reported.

`O=C(N[C@H](Cc1c[nH]c2ccccc12)C(=O)Nc1ccncc1)c1ccc(-c2ccc(F)c(Cl)c2)cc1F` has a concentration of 2.6 µM (Swiss Webster mouse, female, brain; oral, 50 mg/kg, 8 h, 20% Kolliphor vehicle).
`CC(C)(C)c1cc(NC(=O)Nc2ccc(Oc3ccnc4[nH]c(=O)cnc34)cc2F)n(-c2ccccc2)n1` has a concentration of 24.9 µM (NSG mouse (female), plasma; oral, 20 mg/kg, 1 h after last dose, end of therapy).
With `CN(C)C(=O)c1cc2cnc(Nc3ccc(-c4ccc5c(=O)cc(N6CCOCC6)oc5c4)cc3)nc2n1C1CCCC1` the concentration was 7.1 ± 4.2 ng/g (BALB/c mouse, lung; oral, 20 mg/kg, 24 h).
For `CSc1cc(Oc2ccnc3[nH]c(=O)cnc23)ccc1NC(=O)Nc1cc(C(C)(C)C)nn1-c1ccccc1`, the concentration was 69.4 µM (nude mouse (female), plasma; oral, 20 mg/kg, 1 h after last dose, end of therapy).
`O=C(N[C@H](Cc1c[nH]c2ccccc12)C(=O)Nc1ccncc1)c1ccc(N2CCN(c3ccc(F)cc3F)CC2)cc1F` has a concentration of 63.5 µM (Swiss Webster mouse, female, lung; oral, 50 mg/kg, 2 h, 20% Kolliphor vehicle).
With `COc1ccc2c3c([nH]c2c1)[C@H](CC(C)C)N1C(=O)[C@H](CC(=O)NC(C)C)NC(=O)[C@@H]1C3` the concentration was 37 µM (wild-type mouse, male, serum; oral, 100 mg/kg, 0.5 h).
`O=S(=O)(c1ccc(-c2ccc3nccc(Nc4ccncn4)c3c2)cc1)N1CCOCC1` has a concentration of 1.05 µg/mL (female BALB/c mouse, plasma; intraperitoneal, 10 mg/kg, 1 h).
For `CN1CCCC1CCNS(=O)(=O)c1ccc2c(c1)CN(CC1CCCCC1)CC2` (centres unmarked), the concentration was 0.989 ng/g (THY-Tau22 mouse, pons/cerebellum; oral in diet, 0.0002% in diet, 6 months, sampled at 8 p.m.).
